Assay results pooled from the literature.
± marks the error that the study gave.
USP16 ZnF-UBD domain: Ubiquitin carboxyl-terminal hydrolase 16, ZnF-UBD domain (USP16, Homo sapiens, UniProt Q9Y5T5)
UniProt Q9Y5T5, sequence (whole entry, looked up): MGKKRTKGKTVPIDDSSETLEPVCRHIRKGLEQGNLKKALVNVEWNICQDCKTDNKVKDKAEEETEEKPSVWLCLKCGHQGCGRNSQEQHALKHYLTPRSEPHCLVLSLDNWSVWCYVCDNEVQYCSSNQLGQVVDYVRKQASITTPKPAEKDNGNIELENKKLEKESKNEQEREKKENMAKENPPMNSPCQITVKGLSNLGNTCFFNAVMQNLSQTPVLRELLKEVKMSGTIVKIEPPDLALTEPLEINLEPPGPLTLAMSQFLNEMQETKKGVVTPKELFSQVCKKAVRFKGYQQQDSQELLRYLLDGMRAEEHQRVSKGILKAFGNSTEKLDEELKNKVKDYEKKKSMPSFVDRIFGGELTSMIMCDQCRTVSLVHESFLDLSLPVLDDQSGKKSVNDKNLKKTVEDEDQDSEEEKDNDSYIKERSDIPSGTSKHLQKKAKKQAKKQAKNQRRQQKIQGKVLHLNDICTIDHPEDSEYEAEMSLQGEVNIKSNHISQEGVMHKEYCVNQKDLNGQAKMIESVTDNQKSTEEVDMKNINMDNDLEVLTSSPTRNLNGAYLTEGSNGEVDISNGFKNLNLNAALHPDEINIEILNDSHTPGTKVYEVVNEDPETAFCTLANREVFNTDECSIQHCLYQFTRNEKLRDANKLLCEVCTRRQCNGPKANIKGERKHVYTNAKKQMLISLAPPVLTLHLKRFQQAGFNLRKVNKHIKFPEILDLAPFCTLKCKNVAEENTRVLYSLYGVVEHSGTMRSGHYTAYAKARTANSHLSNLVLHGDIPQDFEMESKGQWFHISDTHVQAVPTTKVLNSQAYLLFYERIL
CYP2D6: Cytochrome P450 2D6 (CYP2D6, Homo sapiens, UniProt P10635)
UniProt P10635, sequence (whole entry, looked up): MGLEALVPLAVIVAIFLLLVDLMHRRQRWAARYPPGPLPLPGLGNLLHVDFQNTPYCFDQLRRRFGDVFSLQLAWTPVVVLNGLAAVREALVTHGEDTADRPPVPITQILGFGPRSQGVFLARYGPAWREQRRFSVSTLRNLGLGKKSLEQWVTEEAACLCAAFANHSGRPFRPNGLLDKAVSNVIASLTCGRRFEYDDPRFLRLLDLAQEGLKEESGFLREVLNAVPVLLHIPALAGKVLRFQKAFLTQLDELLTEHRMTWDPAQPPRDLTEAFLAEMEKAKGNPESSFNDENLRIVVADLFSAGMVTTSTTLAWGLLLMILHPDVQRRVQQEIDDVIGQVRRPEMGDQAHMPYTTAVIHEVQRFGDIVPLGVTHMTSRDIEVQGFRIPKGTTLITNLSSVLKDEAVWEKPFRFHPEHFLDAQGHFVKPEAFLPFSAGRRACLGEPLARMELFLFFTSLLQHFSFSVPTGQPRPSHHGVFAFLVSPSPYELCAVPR
UniProt Q9BQ39, sequence (whole entry, unmodified, looked up): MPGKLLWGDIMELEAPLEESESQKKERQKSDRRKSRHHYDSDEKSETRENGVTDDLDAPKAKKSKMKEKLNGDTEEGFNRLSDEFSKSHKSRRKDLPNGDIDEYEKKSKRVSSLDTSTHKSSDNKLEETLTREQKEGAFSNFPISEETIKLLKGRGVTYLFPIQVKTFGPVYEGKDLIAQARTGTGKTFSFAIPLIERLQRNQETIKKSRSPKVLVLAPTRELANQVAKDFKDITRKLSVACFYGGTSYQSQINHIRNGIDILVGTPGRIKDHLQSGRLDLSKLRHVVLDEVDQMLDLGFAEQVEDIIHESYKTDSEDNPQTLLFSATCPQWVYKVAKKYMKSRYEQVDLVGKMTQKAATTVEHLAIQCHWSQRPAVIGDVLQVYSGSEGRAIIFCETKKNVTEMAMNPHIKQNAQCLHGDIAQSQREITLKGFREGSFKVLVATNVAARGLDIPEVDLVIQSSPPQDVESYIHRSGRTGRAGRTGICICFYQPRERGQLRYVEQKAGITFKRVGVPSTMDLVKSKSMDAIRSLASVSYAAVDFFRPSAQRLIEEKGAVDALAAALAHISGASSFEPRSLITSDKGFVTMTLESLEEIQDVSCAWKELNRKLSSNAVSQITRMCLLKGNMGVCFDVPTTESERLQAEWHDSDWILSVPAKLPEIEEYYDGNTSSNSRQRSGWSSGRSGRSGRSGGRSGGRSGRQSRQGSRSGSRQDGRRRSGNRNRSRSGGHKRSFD
UniProt Q6NT16, sequence (whole entry, unmodified, looked up): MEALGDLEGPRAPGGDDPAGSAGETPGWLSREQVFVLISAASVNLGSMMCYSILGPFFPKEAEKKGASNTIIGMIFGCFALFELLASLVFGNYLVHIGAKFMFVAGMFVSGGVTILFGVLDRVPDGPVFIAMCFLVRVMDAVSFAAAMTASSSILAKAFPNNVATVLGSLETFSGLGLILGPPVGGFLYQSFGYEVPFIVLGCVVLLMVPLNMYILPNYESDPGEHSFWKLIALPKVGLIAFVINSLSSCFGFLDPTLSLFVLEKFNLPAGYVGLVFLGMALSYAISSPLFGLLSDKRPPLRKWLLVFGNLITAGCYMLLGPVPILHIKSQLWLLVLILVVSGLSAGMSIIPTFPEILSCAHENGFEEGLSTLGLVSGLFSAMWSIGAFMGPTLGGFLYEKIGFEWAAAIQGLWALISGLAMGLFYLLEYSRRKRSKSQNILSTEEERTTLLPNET
UniProt Q9NZC2, sequence (whole entry, looked up): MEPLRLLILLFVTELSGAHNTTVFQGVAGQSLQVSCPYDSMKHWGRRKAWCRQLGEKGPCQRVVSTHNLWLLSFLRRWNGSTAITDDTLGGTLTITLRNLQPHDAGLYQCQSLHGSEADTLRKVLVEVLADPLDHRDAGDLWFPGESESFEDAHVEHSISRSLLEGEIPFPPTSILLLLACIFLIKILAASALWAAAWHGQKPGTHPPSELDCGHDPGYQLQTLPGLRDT
UniProt Q9BY41, sequence (whole entry, looked up): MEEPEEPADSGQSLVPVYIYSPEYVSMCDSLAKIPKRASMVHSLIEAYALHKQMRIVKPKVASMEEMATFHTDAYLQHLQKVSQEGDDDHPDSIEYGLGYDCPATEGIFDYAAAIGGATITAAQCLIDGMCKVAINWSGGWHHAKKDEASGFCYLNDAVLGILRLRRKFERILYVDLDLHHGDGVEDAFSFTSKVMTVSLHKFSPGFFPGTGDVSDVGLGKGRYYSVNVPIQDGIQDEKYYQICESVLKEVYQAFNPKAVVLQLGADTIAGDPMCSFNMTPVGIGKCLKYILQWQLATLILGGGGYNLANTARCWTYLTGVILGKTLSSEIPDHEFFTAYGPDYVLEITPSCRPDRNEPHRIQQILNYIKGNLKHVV
UniProt Q96C86, sequence (whole entry, unmodified, looked up): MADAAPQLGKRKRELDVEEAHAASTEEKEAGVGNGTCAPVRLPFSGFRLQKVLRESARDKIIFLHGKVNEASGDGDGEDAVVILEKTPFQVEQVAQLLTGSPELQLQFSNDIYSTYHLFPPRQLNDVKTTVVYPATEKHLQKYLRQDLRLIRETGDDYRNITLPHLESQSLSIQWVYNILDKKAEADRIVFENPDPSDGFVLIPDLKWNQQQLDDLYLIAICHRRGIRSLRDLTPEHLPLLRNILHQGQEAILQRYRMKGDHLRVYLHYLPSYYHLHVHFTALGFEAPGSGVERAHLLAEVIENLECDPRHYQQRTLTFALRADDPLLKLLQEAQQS
UniProt Q5VZE5, sequence (whole entry, looked up): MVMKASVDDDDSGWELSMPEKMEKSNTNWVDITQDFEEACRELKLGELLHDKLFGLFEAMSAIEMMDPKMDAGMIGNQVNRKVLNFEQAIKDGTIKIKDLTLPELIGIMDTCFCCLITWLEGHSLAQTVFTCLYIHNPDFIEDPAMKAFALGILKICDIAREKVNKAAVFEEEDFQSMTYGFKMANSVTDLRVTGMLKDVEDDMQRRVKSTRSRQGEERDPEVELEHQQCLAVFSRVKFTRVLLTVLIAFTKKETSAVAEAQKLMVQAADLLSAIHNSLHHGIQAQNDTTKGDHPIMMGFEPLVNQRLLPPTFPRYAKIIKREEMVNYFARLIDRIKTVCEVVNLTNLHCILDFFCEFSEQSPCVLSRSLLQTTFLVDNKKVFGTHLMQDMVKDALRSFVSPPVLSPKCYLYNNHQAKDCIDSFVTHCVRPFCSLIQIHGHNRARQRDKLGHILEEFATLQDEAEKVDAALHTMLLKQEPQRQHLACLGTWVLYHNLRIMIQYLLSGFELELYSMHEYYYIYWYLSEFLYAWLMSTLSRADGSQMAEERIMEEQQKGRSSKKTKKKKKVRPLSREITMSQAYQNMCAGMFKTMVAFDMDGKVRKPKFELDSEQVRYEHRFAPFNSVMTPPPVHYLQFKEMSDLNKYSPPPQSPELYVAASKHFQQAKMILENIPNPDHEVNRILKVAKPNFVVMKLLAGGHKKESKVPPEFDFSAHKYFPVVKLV
UniProt P23280, sequence (whole entry, looked up): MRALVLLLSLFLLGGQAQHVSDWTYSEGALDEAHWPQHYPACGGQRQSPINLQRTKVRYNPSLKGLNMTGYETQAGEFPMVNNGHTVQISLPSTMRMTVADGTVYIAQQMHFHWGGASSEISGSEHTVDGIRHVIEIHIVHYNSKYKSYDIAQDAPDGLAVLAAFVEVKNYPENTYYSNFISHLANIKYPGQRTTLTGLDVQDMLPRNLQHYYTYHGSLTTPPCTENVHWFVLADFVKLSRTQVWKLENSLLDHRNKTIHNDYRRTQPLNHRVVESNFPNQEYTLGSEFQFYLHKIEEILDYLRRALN
UniProt P48729, sequence (whole entry, looked up): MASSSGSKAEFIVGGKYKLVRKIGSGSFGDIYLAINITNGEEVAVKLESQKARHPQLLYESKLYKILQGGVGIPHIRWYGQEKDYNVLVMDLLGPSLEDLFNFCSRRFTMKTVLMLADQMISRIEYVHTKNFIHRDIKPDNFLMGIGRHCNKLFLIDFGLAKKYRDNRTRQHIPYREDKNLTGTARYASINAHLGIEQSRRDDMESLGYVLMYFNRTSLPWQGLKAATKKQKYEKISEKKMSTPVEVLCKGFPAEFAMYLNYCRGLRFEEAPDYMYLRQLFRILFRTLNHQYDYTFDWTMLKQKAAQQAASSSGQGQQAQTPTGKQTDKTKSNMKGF

SMILES | target | assay | system | setting | Kd
COc1cc2c(cc1OC)[C@H]1C[C@@H](O)[C@H](CC(C)C)CN1CC2 | MFS-type transporter SLC18B1 (SLC18B1, Homo sapiens, UniProt Q6NT16, F144A) | binder |  | radiolabeled protein variants | 92.8 µM
C#Cc1c(F)ccc2cc(O)cc(-c3ncc4c(N5CC6CCC(C5)N6)nc(OC[C@@]56CCCN5C[C@H](F)C6)nc4c3F)c12 | Ras-related protein R-Ras2, GDP-bound (RRAS2, Homo sapiens, UniProt P62070) | binding, surface plasmon resonance |  |  | > 30 µM
O=C(O)Cc1cccnc1 | USP16 ZnF-UBD domain |  |  |  | 96.1 µM
CC(C)(COP(=O)(O)OP(=O)(O)OC[C@H]1O[C@@H](n2cnc3c(N)ncnc32)[C@H](O)[C@@H]1OP(=O)(O)O)[C@@H](O)C(=O)NCCC(=O)NCCS | N-alpha-acetyltransferase 35, NatC auxiliary subunit (NAA35, Homo sapiens, UniProt Q5VZE5) | competitor, competition MS pulldown | SW-620 cell lysate | added: photo-immobilized beads | 1.73 µM
Nc1ncnc2c1ncn2[C@@H]1O[C@H](CO[P@](=O)(O)O[P@](=O)(O)O[P@@](=O)(O)S)[C@@H](O)[C@H]1O | GUK1 (Homo sapiens, UniProt Q16774, S18A) | binding, ITC |  | 25 °C, added: GMP | 140 ± 10 µM
CC(=O)Nc1sc2c(c1-c1nc3ccccc3s1)CCN(C(C)C)C2 | Casein kinase I isoform alpha (CSNK1A1, Homo sapiens, UniProt P48729) | binding, surface plasmon resonance |  | up to 50 µM | no binding
C[n+]1cn([C@@H]2O[C@H](COP(=O)(O)O)[C@@H](O)[C@H]2O)c2nc(N)[nH]c(=O)c21 | m7GpppX diphosphatase, WT/mutant heterodimer (DCPS, Homo sapiens, UniProt Q96C86) | binding, Trp fluorescence quenching | 10% glycerol | 20 °C | 0.169 µM
COc1cccc2c1C(=O)c1c(O)c3c(c(O)c1C2=O)C[C@@](O)(/C(C)=N/NC(=O)c1ccccc1)C[C@@H]3O[C@H]1C[C@H](N)[C@H](O)[C@H](C)O1 | Cytochrome P450 2J2 (CYP2J2, Homo sapiens, UniProt P51589) |  |  | 2 min, pH 7.4 | 10.1 ± 1.11 µM
Nc1ncnc2c1ncn2[C@@H]1O[C@H](CSCC[C@H](N)C(=O)O)[C@@H](O)[C@H]1O | O-methyltransferase (Sorghum bicolor, UniProt A0A1B6PFV1) | binding |  | added: saturating resveratrol | 3.96 ± 0.6 µM
O=C(O)CCc1cnn(-c2ccccc2)c1 | USP16 ZnF-UBD domain |  |  |  | > 1000 µM
Nc1ncnc2c1ncn2[C@@H]1O[C@H](COP(=O)(O)OP(=O)(O)OP(=O)(O)O)[C@@H](O)[C@H]1O | ATP-dependent RNA helicase DDX50 (DDX50, Homo sapiens, UniProt Q9BQ39, V227W) | binding, microscale thermophoresis |  | 25 °C, no glucose | 11.7 ± 4.13 µM
O=C(O)CCn1cnc2ccccc21 | USP16 ZnF-UBD domain |  |  |  | > 1000 µM
NCCCNC(=O)[C@H](Cc1ccccc1)NC(=O)[C@@H]1CCCN1C(=O)[C@@H](N)C/C=C/C[C@H](N)C(=O)N1CCC[C@H]1C(=O)N[C@@H](Cc1ccccc1)C(=O)NCCCN | HIV-1 frameshift RNA stem-loop | binding, SPR |  |  | no binding
Nc1ncnc2c1ncn2[C@@H]1O[C@H](COP(=O)(O)OP(=O)(O)O)[C@@H](O)[C@H]1O | Creatine kinase U-type, mitochondrial (CKMT1A, Homo sapiens, UniProt P12532, E265D) | microscale thermophoresis |  | pH 7.0, E227D mutant, no substrate | 25 ± 9 µM
Cn1cc(-c2ccc(S(=O)(=O)n3ccc(/C=C/C(=O)Nc4ccccc4N)c3)cc2)cn1 | Histone deacetylase 8 (HDAC8, Homo sapiens, UniProt Q9BY41) | inhibitor, competition pulldown | SW620 and MV4-11 lysate | 1 h | > 30.2 µM
Nc1nc2c(ncn2[C@@H]2O[C@@H]3COP(=O)(O)O[C@H]4[C@@H](O)[C@H](n5cnc6c(N)ncnc65)O[C@@H]4COP(=O)(O)O[C@H]3[C@H]2O)c(=O)[nH]1 | capV (Acinetobacter baumannii, UniProt A0A505MGQ1) |  |  |  | 0.00268 ± 0.00024 µM

SMILES | target | assay | system | setting | Kd
Cc1ccc(C(=O)Cn2c3c(sc2=N)CCCC3)cc1 | Ethylene receptor 1 (ETR1, Arabidopsis thaliana, UniProt P49333) | binding |  |  | 7.85 µM
OC(CCc1ccc(Cl)cc1)Cn1ccnc1 (centres unmarked) | CYP2D6 | binding |  | 20 min, pH 7.4, purified protein, 2% DMSO | 30.9 µM
Nc1nc(-c2ccc(Cl)c(S(N)(=O)=O)c2)cs1 | Carbonic anhydrase 6 (CA6, Homo sapiens, UniProt P23280) | binding, thermal shift |  | pH 7.0, 25 °C | 0.25 µM
O=C(O)CCc1nc2ccccc2c2nc(Cc3ccccc3)nn12 | USP16 ZnF-UBD domain |  |  |  | 285 µM
CC(=O)NCC(=O)N[C@@H](Cc1ccc(O)cc1)C(=O)NCC(=O)N[C@@H](CO)C(=O)N[C@@H](CO)C(=O)N[C@@H](CO)C(=O)N[C@@H](CCCNC(=N)N)C(=O)N[C@@H](CCCNC(=N)N)C(=O)N[C@@H](C)C(=O)N1CCC[C@H]1C(=O)N[C@@H](CCC(N)=O)C(=O)N[C@H](C(N)=O)[C@@H](C)O | IGF-1R human | binding, microscale thermophoresis |  |  | 12 ± 1.1 µM
OC[C@H]1OC(O)[C@H](O)[C@@H](O)[C@@H]1O (some centres unmarked) | ATP-dependent RNA helicase DDX50 (DDX50, Homo sapiens, UniProt Q9BQ39, K187G) | microscale thermophoresis |  | purified recombinant DDX protein | 939 ± 419 µM
CCCCCCCCCCCCCCCC(=O)O | uncharacterized protein (Kocuria marina, UniProt A0A0B0D9P4) | heme spectral shift, substrate, UV-visible spectral titration |  |  | 7.66 µM
O=C(Cn1ccnc1)c1ccc(Cl)cc1Cl | CYP2D6 | binding |  | 20 min, pH 7.4, purified protein, 2% DMSO | 13.6 µM
O=C(O)CNC(=O)c1ccc(C(=O)N2CCC(c3ccc(Cl)cc3)CC2)cn1 | USP16 ZnF-UBD domain |  |  |  | 436 µM
O=C(OCC1COC(Cn2ccnc2)(c2ccc(Cl)cc2Cl)O1)c1ccccc1 (centres unmarked) | CYP2D6 | binding |  | 20 min, pH 7.4, purified protein, 2% DMSO | 4.28 µM
O=C(O)CCc1ccno1 | USP16 ZnF-UBD domain |  |  |  | > 1000 µM
NCCCNCCCCNCCCN | MFS-type transporter SLC18B1 (SLC18B1, Homo sapiens, UniProt Q6NT16, D255A) | binder |  |  | 402 µM
NC(=O)[C@H]1CCCN1C(=O)CCC(=O)O | USP16 ZnF-UBD domain |  |  |  | 154 µM
CC(C)(C)c1ccc(S(=O)(=O)Nc2ccc(-n3ccnc3)cc2)cc1 | CYP2D6 | binding |  | 20 min, pH 7.4, purified protein, 2% DMSO | 0.549 µM
C=C1CC(C(=O)Nc2cc(C(=O)NC)cc(-c3csc(C(=O)OC)c3)c2OC)C1 | Triggering receptor expressed on myeloid cells 2 (Homo sapiens, UniProt Q9NZC2) | binding |  |  | 218 µM
O=C(O)CCc1ccccc1OCc1ccccn1 | USP16 ZnF-UBD domain |  |  |  | 48.2 µM

Excerpt of the above:
SMILES | target | assay | system | setting | Kd
OC[C@H]1OC(O)[C@H](O)[C@@H](O)[C@@H]1O (some centres unmarked) | ATP-dependent RNA helicase DDX50 (DDX50, Homo sapiens, UniProt Q9BQ39, K187G) | microscale thermophoresis |  | purified recombinant DDX protein | 939 ± 419 µM
Nc1ncnc2c1ncn2[C@@H]1O[C@H](COP(=O)(O)OP(=O)(O)OP(=O)(O)O)[C@@H](O)[C@H]1O | ATP-dependent RNA helicase DDX50 (DDX50, Homo sapiens, UniProt Q9BQ39, V227W) | binding, microscale thermophoresis |  | 25 °C, no glucose | 11.7 ± 4.13 µM
CC(=O)NCC(=O)N[C@@H](Cc1ccc(O)cc1)C(=O)NCC(=O)N[C@@H](CO)C(=O)N[C@@H](CO)C(=O)N[C@@H](CO)C(=O)N[C@@H](CCCNC(=N)N)C(=O)N[C@@H](CCCNC(=N)N)C(=O)N[C@@H](C)C(=O)N1CCC[C@H]1C(=O)N[C@@H](CCC(N)=O)C(=O)N[C@H](C(N)=O)[C@@H](C)O | IGF-1R human | binding, microscale thermophoresis |  |  | 12 ± 1.1 µM
NCCCNC(=O)[C@H](Cc1ccccc1)NC(=O)[C@@H]1CCCN1C(=O)[C@@H](N)C/C=C/C[C@H](N)C(=O)N1CCC[C@H]1C(=O)N[C@@H](Cc1ccccc1)C(=O)NCCCN | HIV-1 frameshift RNA stem-loop | binding, SPR |  |  | no binding
O=C(O)CCc1ccccc1OCc1ccccn1 | USP16 ZnF-UBD domain |  |  |  | 48.2 µM
